Measurements gathered from unrelated publications.
± gives the spread as reported.
Cytochrome P450 2A13: Cytochrome P450 2A13 (Homo sapiens, UniProt Q16696)
UniProt Q16696, sequence (whole entry, looked up): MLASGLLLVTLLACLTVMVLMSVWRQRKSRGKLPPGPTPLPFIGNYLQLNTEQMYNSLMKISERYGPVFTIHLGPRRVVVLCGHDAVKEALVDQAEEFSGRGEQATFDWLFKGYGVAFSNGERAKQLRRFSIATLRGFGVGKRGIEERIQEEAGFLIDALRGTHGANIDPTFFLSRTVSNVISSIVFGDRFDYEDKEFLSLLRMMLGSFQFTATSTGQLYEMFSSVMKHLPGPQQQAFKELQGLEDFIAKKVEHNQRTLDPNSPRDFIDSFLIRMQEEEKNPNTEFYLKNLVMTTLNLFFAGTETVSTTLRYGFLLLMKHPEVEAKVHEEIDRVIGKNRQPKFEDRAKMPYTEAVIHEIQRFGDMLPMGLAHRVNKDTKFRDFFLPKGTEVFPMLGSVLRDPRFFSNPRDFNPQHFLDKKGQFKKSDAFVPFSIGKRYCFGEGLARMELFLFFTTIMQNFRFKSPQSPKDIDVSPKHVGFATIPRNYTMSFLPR
UniProt P07148, sequence (whole entry, looked up): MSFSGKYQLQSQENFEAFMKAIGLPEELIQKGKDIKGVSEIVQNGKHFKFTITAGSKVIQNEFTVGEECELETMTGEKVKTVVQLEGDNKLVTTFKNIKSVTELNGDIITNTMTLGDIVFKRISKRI
UniProt P17988, sequence (whole entry, looked up): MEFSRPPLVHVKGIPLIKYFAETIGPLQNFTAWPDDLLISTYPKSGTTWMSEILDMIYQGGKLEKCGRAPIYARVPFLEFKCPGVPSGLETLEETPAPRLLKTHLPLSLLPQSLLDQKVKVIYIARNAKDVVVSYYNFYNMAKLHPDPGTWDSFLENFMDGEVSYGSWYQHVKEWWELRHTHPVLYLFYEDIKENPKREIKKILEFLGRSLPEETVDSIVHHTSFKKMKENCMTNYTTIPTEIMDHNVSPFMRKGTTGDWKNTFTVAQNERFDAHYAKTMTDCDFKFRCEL
UniProt P00921, sequence (whole entry, looked up): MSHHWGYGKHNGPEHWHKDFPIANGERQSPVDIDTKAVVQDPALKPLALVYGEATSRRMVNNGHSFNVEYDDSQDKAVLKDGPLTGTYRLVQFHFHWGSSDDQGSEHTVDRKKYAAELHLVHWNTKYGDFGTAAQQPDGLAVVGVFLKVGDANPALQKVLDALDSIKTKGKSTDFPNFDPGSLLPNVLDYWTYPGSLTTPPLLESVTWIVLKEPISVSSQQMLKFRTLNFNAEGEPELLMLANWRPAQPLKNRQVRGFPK
UniProt Q14145, sequence (whole entry, looked up): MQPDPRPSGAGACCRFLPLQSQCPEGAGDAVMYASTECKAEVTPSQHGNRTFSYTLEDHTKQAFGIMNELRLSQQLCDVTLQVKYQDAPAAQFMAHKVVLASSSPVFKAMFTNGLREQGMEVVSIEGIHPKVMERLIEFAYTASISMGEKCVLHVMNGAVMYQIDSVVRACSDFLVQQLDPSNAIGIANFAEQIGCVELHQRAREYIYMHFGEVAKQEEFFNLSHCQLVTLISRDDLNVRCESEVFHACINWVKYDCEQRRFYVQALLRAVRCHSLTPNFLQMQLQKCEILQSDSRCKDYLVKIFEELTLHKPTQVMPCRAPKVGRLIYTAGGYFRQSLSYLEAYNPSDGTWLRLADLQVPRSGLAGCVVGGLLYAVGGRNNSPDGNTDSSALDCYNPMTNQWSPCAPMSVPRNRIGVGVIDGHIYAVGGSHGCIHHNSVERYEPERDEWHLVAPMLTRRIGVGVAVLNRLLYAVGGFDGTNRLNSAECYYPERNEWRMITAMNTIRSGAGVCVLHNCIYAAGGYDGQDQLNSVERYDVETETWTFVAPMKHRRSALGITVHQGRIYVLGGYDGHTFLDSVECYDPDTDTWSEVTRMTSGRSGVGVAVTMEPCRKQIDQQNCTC
UniProt O88703, sequence (whole entry, looked up): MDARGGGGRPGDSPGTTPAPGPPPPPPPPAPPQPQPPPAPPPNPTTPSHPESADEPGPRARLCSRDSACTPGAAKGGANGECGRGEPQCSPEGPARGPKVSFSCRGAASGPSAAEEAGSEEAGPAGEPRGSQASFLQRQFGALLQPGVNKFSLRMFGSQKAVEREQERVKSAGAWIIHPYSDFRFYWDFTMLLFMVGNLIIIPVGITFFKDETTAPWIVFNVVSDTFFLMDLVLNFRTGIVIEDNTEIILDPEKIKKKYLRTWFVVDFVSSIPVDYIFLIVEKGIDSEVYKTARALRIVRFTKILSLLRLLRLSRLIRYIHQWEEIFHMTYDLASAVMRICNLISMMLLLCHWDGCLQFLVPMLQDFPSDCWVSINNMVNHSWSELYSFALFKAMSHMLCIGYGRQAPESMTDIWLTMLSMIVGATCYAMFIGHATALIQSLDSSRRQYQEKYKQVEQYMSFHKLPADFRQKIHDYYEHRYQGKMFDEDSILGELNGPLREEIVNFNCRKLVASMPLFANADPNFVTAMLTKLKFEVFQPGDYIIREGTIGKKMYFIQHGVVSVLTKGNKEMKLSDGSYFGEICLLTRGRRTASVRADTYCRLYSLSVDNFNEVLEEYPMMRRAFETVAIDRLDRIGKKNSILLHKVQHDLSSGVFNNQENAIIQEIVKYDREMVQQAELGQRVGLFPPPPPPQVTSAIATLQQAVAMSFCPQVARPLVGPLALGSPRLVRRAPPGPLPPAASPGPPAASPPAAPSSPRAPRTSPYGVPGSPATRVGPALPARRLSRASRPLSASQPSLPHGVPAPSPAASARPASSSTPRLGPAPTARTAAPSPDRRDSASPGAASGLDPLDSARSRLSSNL
UniProt P14779, sequence (whole entry, looked up): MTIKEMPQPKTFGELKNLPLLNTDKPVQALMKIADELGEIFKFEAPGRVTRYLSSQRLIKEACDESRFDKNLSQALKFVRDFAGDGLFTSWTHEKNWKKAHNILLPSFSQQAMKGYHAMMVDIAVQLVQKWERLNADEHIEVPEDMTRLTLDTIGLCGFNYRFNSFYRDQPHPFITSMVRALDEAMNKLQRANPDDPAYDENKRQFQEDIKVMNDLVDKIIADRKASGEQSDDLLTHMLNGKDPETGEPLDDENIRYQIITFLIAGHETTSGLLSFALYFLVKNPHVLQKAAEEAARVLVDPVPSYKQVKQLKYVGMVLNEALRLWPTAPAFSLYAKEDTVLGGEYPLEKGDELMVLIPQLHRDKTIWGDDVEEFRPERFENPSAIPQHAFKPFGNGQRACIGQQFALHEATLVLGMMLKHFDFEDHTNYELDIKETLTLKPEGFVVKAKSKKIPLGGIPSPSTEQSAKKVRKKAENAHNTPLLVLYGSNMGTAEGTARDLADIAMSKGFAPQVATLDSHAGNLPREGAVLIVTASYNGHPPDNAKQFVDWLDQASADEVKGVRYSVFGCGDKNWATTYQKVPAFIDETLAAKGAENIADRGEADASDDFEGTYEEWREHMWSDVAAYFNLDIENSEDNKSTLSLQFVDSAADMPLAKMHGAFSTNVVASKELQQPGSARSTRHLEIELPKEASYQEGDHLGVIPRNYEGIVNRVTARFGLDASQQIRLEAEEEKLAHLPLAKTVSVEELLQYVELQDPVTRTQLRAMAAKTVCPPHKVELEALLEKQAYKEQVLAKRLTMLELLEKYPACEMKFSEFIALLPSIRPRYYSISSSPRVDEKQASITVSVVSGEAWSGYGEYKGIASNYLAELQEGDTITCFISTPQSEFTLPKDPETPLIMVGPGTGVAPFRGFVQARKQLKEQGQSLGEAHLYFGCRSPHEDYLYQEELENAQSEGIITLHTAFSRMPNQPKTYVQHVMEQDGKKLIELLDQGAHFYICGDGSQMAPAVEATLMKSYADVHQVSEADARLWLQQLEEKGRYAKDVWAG
UniProt P02692, sequence (whole entry, looked up): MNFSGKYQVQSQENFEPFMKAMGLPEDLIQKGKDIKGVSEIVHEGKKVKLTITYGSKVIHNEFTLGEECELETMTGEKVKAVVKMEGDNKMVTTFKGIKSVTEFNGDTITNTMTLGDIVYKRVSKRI
UniProt P12004, sequence (whole entry, looked up): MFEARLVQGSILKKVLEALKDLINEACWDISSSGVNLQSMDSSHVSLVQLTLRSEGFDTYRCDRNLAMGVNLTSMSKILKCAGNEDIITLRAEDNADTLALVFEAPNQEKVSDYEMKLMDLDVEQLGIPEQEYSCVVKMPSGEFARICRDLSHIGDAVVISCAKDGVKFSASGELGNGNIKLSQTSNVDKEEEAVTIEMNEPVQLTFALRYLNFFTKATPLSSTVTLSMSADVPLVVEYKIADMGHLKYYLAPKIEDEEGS
UniProt P62577, sequence (whole entry, looked up): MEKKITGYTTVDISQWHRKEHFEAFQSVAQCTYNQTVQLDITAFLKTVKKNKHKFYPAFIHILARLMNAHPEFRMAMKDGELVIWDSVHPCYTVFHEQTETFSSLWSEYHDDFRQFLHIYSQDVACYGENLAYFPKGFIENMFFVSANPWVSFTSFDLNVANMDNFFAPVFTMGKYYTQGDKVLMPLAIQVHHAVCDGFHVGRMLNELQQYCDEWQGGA

Substance | target | test | test system | setting | Kd [µM]
Nc1ncnc2c1ncn2[C@H]1C[C@H](O)[C@@H](COP(=O)(O)OP(=O)(O)OP(=O)(O)O)O1 | matB (Rhodopseudomonas palustris, UniProt Q6ND88, C106A/K488A/Q457C/R286C) | binding, fluorescence titration |  | pH 7.0, 20 °C | 440 ± 53
CCCCCCCCCCCCCCCC(=O)N[C@@H](CC(C)C)C(=O)O | Bifunctional cytochrome P450/NADPH--P450 reductase, heme domain (cyp102A1, Bacillus megaterium, UniProt P14779) | substrate binding, substrate, UV-vis spectral titration |  | pH 7.4, room temperature, wild-type heme domain | < 0.03
C=CC1=C(C)c2cc3[nH]c(cc4nc(cc5[nH]c(cc1n2)c(C)c5C=C)C(C)=C4CCC(=O)O)c(CCC(=O)O)c3C.[Fe+3] | Kelch protein K13 (Plasmodium falciparum, UniProt Q8IDQ2, R539T) |  |  |  | 0.131 ± 0.015
CC[C@H](C)[C@H](N)C(=O)N[C@@H](CC(C)C)C(=O)N[C@@H](CCCCN)C(=O)N[C@@H](CCC(=O)O)C(=O)N1CCC[C@H]1C(=O)N[C@H](C(=O)N[C@@H](CSC1CC(=O)N(CCCCCNC(=O)c2ccc(-c3c4ccc(=N)c(S(=O)(=O)O)c-4oc4c(S(=O)(=O)O)c(N)ccc34)c(C(=O)O)c2)C1=O)C(=O)NCC(=O)N[C@H](C(=O)O)C(C)C)C(C)C (stereo partly drawn) | HLA class I histocompatibility antigen, A alpha chain, allele A*02:01 (Homo sapiens, UniProt P04439) | binding, fluorescence polarization |  |  | 0.016 ± 0.004
C#Cc1ccc2c(ccc3ccccc32)c1 | Cytochrome P450 2A13 | binding, absorbance |  | pH 7.4 | 1.1
CSCC[C@H](NC(=O)[C@H](CO)NC(=O)[C@@H](NC(=O)[C@H](CCC(N)=O)NC(=O)[C@H](CCCCN)NC(=O)[C@H](CCCCN)NC(=O)[C@H](CCCNC(=N)N)NC(=O)[C@H](CCCCN)NC(C)=O)[C@@H](C)O)C(=O)N[C@H](C(=O)N[C@@H](CC(=O)O)C(=O)N[C@@H](Cc1ccccc1)C(=O)N[C@@H](Cc1ccc(O)cc1)C(=O)N[C@@H](Cc1c[nH]cn1)C(=O)N[C@@H](CO)C(=O)N[C@@H](CCCNC(=N)N)C(=O)N[C@@H](CCCCN)C(=O)N[C@@H](CCCCN)C(N)=O)[C@@H](C)O | PCNA (Homo sapiens, UniProt P12004) | binding, ITC |  | pH 7.4 | 0.087
C=C(C)[C@@H]1CCC(C)=C[C@H]1c1c(O)cc(CCCCC)cc1O | FABP1 (Homo sapiens, UniProt P07148) | binding, DAUDA displacement |  | added: DAUDA 0.5 µM | 0.57 ± 0.006
CCCCCCCCCC[N+](CC)(CC)CC | potassium channel | steady-state block | Doryteuthis pealeii | internal application, added: membrane potential +100 mV | 3.7
CCSCCNC(=O)CCNC(=O)[C@H](O)C(C)(C)COP(=O)(O)OP(=O)(O)OC[C@H]1O[C@@H](n2cnc3c(N)ncnc32)[C@H](O)[C@@H]1OP(=O)(O)O | Chloramphenicol acetyltransferase (cat, Escherichia coli, UniProt P62577) | ligand, native ESI-MS |  | first ligand binding, gas phase, added: 200 mM ammonium acetate | 5 ± 2
N#Cc1ccc(/C=C/C(=O)O)cc1 | acetylcholine binding protein (Bulinus truncatus) | binding, scintillation proximity |  | added: 5 nM [3H]epibatidine | 2.63
Nc1ncnc2c1ncn2[C@@H]1O[C@H](COP(=O)(O)O)[C@@H](OP(=O)(O)O)[C@H]1O | Sult1a1 (Rattus norvegicus, UniProt P17988) | binding, TNP-AMP displacement |  | enzyme pretreated with GSH | 4.01 ± 0.06
CC/C=C/C=C\C=C/C=C/CCCCCCCC(=O)SCCNC(=O)CCNC(=O)[C@H](O)C(C)(C)COP(=O)(O)OP(=O)(O)OC[C@H]1O[C@@H](n2cnc3c(N)ncnc32)[C@H](O)[C@@H]1OP(=O)(O)O (relative stereo) | Fatty acid-binding protein, liver (Rattus norvegicus, UniProt P02692) | binding, fluorescence binding |  |  | 0.228 ± 0.018
N#C[C@H](O[C@@H]1O[C@H](CO)[C@@H](O)[C@H](O)[C@H]1O)c1ccccc1 | ACE2 (Homo sapiens, UniProt Q9BYF1) | binding, SPR |  |  | 0.268
CN(C)CCCC[C@H](N)C(=O)O | Lethal(3)malignant brain tumor-like protein 1 (Homo sapiens, UniProt Q9Y468) |  |  |  | > 250
CCCCCCCCCC[N+](C)(C)c1ccccc1 | potassium channel | steady-state block | Doryteuthis pealeii | internal application, added: membrane potential +100 mV | 13.3
CC[C@H](C)[C@H](NC(=O)[C@@H]1CCCN1C(=O)[C@H](CC(C)C)NC(=O)[C@H](Cc1ccccc1)NC(=O)[C@H](CCC(=O)O)NC(=O)CNC(=O)[C@@H](NC(=O)[C@H](CCC(=O)O)NC(=O)[C@@H]1CCCN1C(=O)[C@H](CC(=O)O)NC(=O)[C@H](CC(C)C)NC(=O)[C@H](CCC(N)=O)NC(=O)[C@H](CC(C)C)NC(=O)[C@H](CCC(N)=O)NC(=O)[C@H](C)NC(=O)[C@H](Cc1ccccc1)NC(C)=O)[C@@H](C)O)C(=O)N[C@@H](CCC(N)=O)C(=O)N1CCC[C@H]1C(=O)N[C@@H](C)C(=O)N[C@@H](CCC(N)=O)C(N)=O | KEAP1 (Homo sapiens, UniProt Q14145) | binding, ITC |  | pH 7 | 0.007
CN(C)c1cccc2c(S(N)(=O)=O)cccc12 | CA2 (Bos taurus, UniProt P00921) | binding |  |  | 0.374
CN[C@H]1C(=O)N[C@@H]2Cc3ccc(cc3)Oc3cc4cc(c3O[C@@H]3O[C@H](C(=O)O)[C@@H](O)[C@H](O)[C@H]3NC(=O)CCCCCCCCC(C)C)Oc3ccc(cc3Cl)[C@@H](O)[C@@H]3NC(=O)[C@H](NC(=O)[C@@H]4NC(=O)[C@@H](NC2=O)c2cc(cc(O)c2Cl)Oc2cc1ccc2O)c1ccc(O)c(c1)-c1c(O[C@H]2O[C@H](CO)[C@@H](O)[C@H](O)[C@@H]2O)cc(O)cc1[C@@H](C(=O)NCCCN(C)C)NC3=O | Endolysin (Enterobacteria phage T4, UniProt P00720, C54T/C97A/L164A) | SPR |  | 25 °C, immobilised T4 lysozyme fusion | 0.043 ± 0.002
CC[N+](CC)(CC)CC(=O)Nc1c(C)cccc1C | sodium channel (rat brain), batrachotoxin-modified | open channel block, blocker, planar lipid bilayer, single channel |  | low-Kd period, 0 mV | 1950
CC1=C[C@H](O)CC(C)(C)[C@H]1/C=C/C(C)=C/C=C/C(C)=C/C=C/C=C(C)/C=C/C=C(C)/C=C/C1=C(C)C[C@@H](O)CC1(C)C | Albumin (ALB, Homo sapiens, UniProt P02768) | binding, SPR |  |  | 1.11
CC#Cc1ccc2c(ccc3ccccc32)c1 | Cytochrome P450 2A13 | binding, absorbance |  | pH 7.4 | 3.9
CC[N+](CC)(CC)CCCc1ccccc1 | potassium channel | steady-state block | Doryteuthis pealeii | internal application, added: membrane potential +100 mV | 7
cGMP | Potassium/sodium hyperpolarization-activated cyclic nucleotide-gated channel 2, C-terminal region (Hcn2, Mus musculus, UniProt O88703) | isothermal titration calorimetry |  | 25 °C, C-linker/CNBD tetramer, low-affinity site | 6.13
C#CC[C@H](NC(=O)CNC(=O)[C@H](CO)NC(=O)[C@H](C)NC(=O)[C@H](Cc1ccc(O)cc1)NC(=O)[C@H](Cc1c[nH]cn1)NC(=O)[C@H](CC(C)C)NC(=O)[C@@H](NC(=O)[C@H](Cc1c[nH]c2ccccc12)NC(=O)[C@H](Cc1ccccc1)NC(=O)[C@H](CCCCN)NC(=O)[C@H](CC(N)=O)NC(=O)[C@H](CC(C)C)NC(=O)[C@@H](NC(=O)[C@H](Cc1c[nH]cn1)NC(=O)[C@H](CC(=O)O)NC(=O)[C@H](CC(C)C)NC(=O)[C@H](Cc1ccccc1)NC(=O)[C@@H](NC(=O)[C@@H]1CCCN1C(=O)[C@@H](N)CCSC)[C@@H](C)CC)[C@@H](C)CC)[C@@H](C)CC)C(N)=O (stereo in doubt) | Programmed cell death 1 ligand 1, extracellular domain, unglycosylated (CD274, Homo sapiens, UniProt Q9NZQ7) | binding |  |  | 0.06 to 0.12

Some of these lines once more:
Substance | target | test | test system | setting | Kd [µM]
Nc1ncnc2c1ncn2[C@H]1C[C@H](O)[C@@H](COP(=O)(O)OP(=O)(O)OP(=O)(O)O)O1 | matB (Rhodopseudomonas palustris, UniProt Q6ND88, C106A/K488A/Q457C/R286C) | binding, fluorescence titration |  | pH 7.0, 20 °C | 440 ± 53
CCCCCCCCCCCCCCCC(=O)N[C@@H](CC(C)C)C(=O)O | Bifunctional cytochrome P450/NADPH--P450 reductase, heme domain (cyp102A1, Bacillus megaterium, UniProt P14779) | substrate binding, substrate, UV-vis spectral titration |  | pH 7.4, room temperature, wild-type heme domain | < 0.03
C=CC1=C(C)c2cc3[nH]c(cc4nc(cc5[nH]c(cc1n2)c(C)c5C=C)C(C)=C4CCC(=O)O)c(CCC(=O)O)c3C.[Fe+3] | Kelch protein K13 (Plasmodium falciparum, UniProt Q8IDQ2, R539T) |  |  |  | 0.131 ± 0.015
CC[C@H](C)[C@H](N)C(=O)N[C@@H](CC(C)C)C(=O)N[C@@H](CCCCN)C(=O)N[C@@H](CCC(=O)O)C(=O)N1CCC[C@H]1C(=O)N[C@H](C(=O)N[C@@H](CSC1CC(=O)N(CCCCCNC(=O)c2ccc(-c3c4ccc(=N)c(S(=O)(=O)O)c-4oc4c(S(=O)(=O)O)c(N)ccc34)c(C(=O)O)c2)C1=O)C(=O)NCC(=O)N[C@H](C(=O)O)C(C)C)C(C)C (stereo partly drawn) | HLA class I histocompatibility antigen, A alpha chain, allele A*02:01 (Homo sapiens, UniProt P04439) | binding, fluorescence polarization |  |  | 0.016 ± 0.004
